Earlier results as cited in several papers.
Each line is one published result; not all experiments were run side by side. ± marks the error that the study gave.
B1: Skp2 1–88; sequence looked up; chain MHRKHLQEIPDLSSNVATSFTWGWDSSKTSELLSGMGVSALEKEEPDSENIPQELLSNLGHPESPPRKRLKSKGSDKDFVIVRRPKLN

| Molecule | target | test | system | conditions | IC50 |
| --- | --- | --- | --- | --- | --- |
| CCCC(CCC)C(=O)O | HDAC1 | inhibitor |  |  | 171 µM |
| CCCOc1ccccc1-c1nc2nn[nH]c2c(=O)[nH]1 | PDE9, human | enzyme activity, inhibitor |  |  | 29 to 35 µM |
| CNC(=O)[C@H](Cc1c[nH]c2ccccc12)NC(=O)[C@@H](CC(=O)NO)CC(C)C | ADAM9 (recombinant soluble) | enzyme activity, inhibitor |  |  | 0.001 µM |
| Cc1cc([C@H](C)Nc2ccccc2)c2oc(N3CCOCC3)cc(=O)c2c1 | PI4KIIα | enzyme activity, inhibitor |  | added: 10 µM ATP | > 100 µM |
| CCCCOc1c2cc(C(=O)Nc3cc(C(=O)O)cc(C(=O)NC4CCCCC4)c3)cc1Cc1cc(C(=O)Nc3cc(C(=O)O)cc(C(=O)NC4CCCCC4)c3)cc(c1OCCCC)Cc1cc(C(=O)Nc3cc(C(=O)O)cc(C(=O)NC4CCCCC4)c3)cc(c1OCCCC)Cc1cc(C(=O)Nc3cc(C(=O)O)cc(C(=O)NC4CCCCC4)c3)cc(c1OCCCC)C2 | VEGF | growth factor activity |  |  | > 10 µM |
| CNC(=O)[C@@H](NC(=O)[C@H](CC(C)C)[C@H](O)C(=O)NO)C(C)(C)C | recombinant ADAM10 | enzyme activity, inhibitor |  |  | 0.078 µM |
| COc1ccc2c(c1OC)N=C(NC(=O)c1cccnc1)N1CCN=C21 | mTORC1 | enzyme activity, inhibitor |  | added: 10 µM ATP | 1.05 µM |
| CCN(CCO)CCCC(C)Nc1ccnc2cc(Cl)ccc12 (centres unmarked) | IK1 channel | ion current, inhibitor | CHO cells | room temperature | 44.1 µM |
| CC(C)[C@@H]1NC(=O)C(C)(C)NC(=O)c2csc(n2)CNC(=O)C[C@@H](/C=C/CCS)OC1=O | HDAC11 | enzyme activity, inhibitor, cell-free |  |  | 0.0023 µM |
| O=P(O)(O)Oc1cc(OP(=O)(O)O)c(OP(=O)(O)O)cc1OP(=O)(O)O | InsP3 receptor | Ins(1,4,5)P3 binding |  |  | ~10 µM |
| O=P(O)(O)C(O)(Cc1cccc(-c2cccc3c2oc2ccccc23)c1)P(=O)(O)O | undecaprenyl pyrophosphate synthase | enzyme activity, inhibitor |  |  | ~0.25 µM |
| B1 (Skp2 1–88) | CDK2-cyclin A (human) | Rb phosphorylation, inhibitor |  | added: Rb | 0.18 µM |
| O=c1cc(-c2ccc(O)c(-c3c(O)cc(O)c4c(=O)cc(-c5ccc(O)cc5)oc34)c2)oc2cc(O)cc(O)c12 | amyloid beta 1-40 | fibrillization |  |  | ~5 µM |
| CCCC(CCC)C(=O)O | non-class I HDACs |  |  |  | > 2000 µM |
| Cc1[nH]c2ccccc2c1CCNCc1ccc(/C=C/C(=O)NO)cc1 | class I HDACs | inhibitor |  |  | < 0.005 µM |
| O=P(O)(OC[C@H]1OC(O)[C@H](O)[C@@H]1O)OP(=O)(O)OC[C@H]1O[C@@H](n2cnc3c2ncn2ccnc32)[C@H](O)[C@@H]1O (some centres unmarked) | TRPM2 (human) | channel current, inhibitor, inside-out patch clamp |  | added: saturating cytosolic Ca2+ | 112 µM |
| Cn1cc(-c2ccc3c(c2)ncn3-c2cc(NS(=O)(=O)C3CC3)cc(-c3ccc(F)cc3F)c2)cn1 | RET kinase | enzyme activity, inhibitor |  |  | < 0.1 µM |
| Cc1ccc([N+](=O)[O-])cc1S(=O)(=O)N(C)/N=C/c1cnc2ccc(Br)cn12 | PI4KIIα | enzyme activity, inhibitor |  | added: 10 µM ATP | > 100 µM |
| CN([C@@H](Cc1ccc(OS(=O)(=O)c2cccc3cnccc23)cc1)C(=O)N1CCN(c2ccccc2)CC1)S(=O)(=O)c1cccc2cnccc12 | CaMKII | inhibitor |  |  | > 2 µM |

| Molecule | target | test | system | conditions | IC50 |
| --- | --- | --- | --- | --- | --- |
| CS(=O)(=O)Nc1cccc(-c2ccc3c(NC(=O)C4CC4)n[nH]c3c2)c1 | AAK1 | inhibitor |  |  | 0.22 µM |
| COCC(=O)O[C@]1(CCN(C)CCCc2nc3ccccc3[nH]2)CCc2cc(F)ccc2[C@@H]1C(C)C | T-type calcium channel | inhibitor | HEK293 |  | 10.1 µM |
| CC(C)(O)CC(=O)NCCn1ccc2ncnc(Nc3ccc(Oc4cccc(C(F)(F)F)c4)c(Cl)c3)c21 | HER2, human recombinant |  |  |  | 0.017 µM |
| APFPE | DPP-IV | enzyme activity | peptide |  | 49.5 ± 0.5 µM |
| [Co+2] | voltage-gated calcium channels | barium current, blocker |  |  | 65 µM |
| CCNC(=O)NC1CCCCC1 | human soluble epoxide hydrolase | inhibitor |  | added: PHOME substrate | 7.5 ± 0.13 µM |
| COc1ccc([C@H](CC(=O)O)N2CCN(CCCc3ccc4c(n3)NCCC4)C2=O)cn1 | integrin αvβ3, human | ligand binding, inhibitor | purified receptor |  | 8e-05 µM |
| OC(c1cc(C(F)(F)F)nc2c(C(F)(F)F)cccc12)C1CCCCN1 (centres unmarked) | connexin-43 gap junction channel | channel conductance, inhibitor |  |  | 12 µM |
| CC(C)C[C@H](CC(=O)NO)C(=O)N[C@H](C(=O)N[C@@H](C)C(=O)NCCN)C(C)(C)C | ADAM17 (recombinant) | enzyme activity, inhibitor |  |  | < 0.1 µM |
| CC1(C)CCC(C)(C)c2cc(NC(=O)c3ccc(C(=O)O)cc3)ccc21 | CYP26A1 | enzyme activity, inhibitor |  | added: 9-cis-retinoic acid | 12 ± 3.98 µM |
| Oc1cccc(-c2nc(N3CCOCC3)c3oc4ncccc4c3n2)c1 | ATM | kinase activity, inhibitor |  | added: 10 µM ATP | 0.92 µM |
| CC(Cc1c[nH]c2ccccc12)(NC(=O)Nc1ccc([N+](=O)[O-])cc1)C(=O)NCC1(c2ccccn2)CCCCC1 (centres unmarked) | mouse GRP receptor | binding |  | literature species comparison | 2.15 ± 0.402 µM |
| Cc1cc(O)c2c(c1)C(=O)c1cc(O)cc(O)c1C2=O | trypsin | enzyme activity, inhibitor |  | range of inhibitory concentrations | 50 to 100 µM |
| N[C@@H](CCC(=O)O)C(=O)O | glutamate carboxypeptidase II | enzyme activity, radioenzymatic or HPLC |  |  | 500 µM |
| YSCPHR | ACE | enzyme activity, inhibitor | peptide |  | 312 µM |
| CN1CC(=O)N2[C@H](c3ccc4c(c3)OCO4)c3[nH]c4ccccc4c3C[C@@H]2C1=O | PDE7 |  |  |  | > 10 µM |
| COc1ccc(-c2nnnn2-c2cc(OC)c(OC)c(OC)c2)cc1 | tubulin | tubulin polymerisation, inhibitor |  | added: tubulin 10 µM | 2.5 ± 0.3 µM |
| Cc1cc(C(C)Nc2ccccc2)c2oc(-c3ccncc3)cc(=O)c2c1 (centres unmarked) | PI4KIIα | enzyme activity, inhibitor |  | added: 10 µM ATP | > 100 µM |
| C[C@@H](NCCN(C)C)[C@@H]1CC[C@@H]2[C@H]3CCc4cc(O)ccc4[C@@H]3CC[C@]21C | CatSper, human | alkalization/depolarization-induced activation, inhibitor | human sperm |  | 1.2 µM |

A few entries again:
| Molecule | target | test | system | conditions | IC50 |
| --- | --- | --- | --- | --- | --- |
| CC1(C)CCC(C)(C)c2cc(NC(=O)c3ccc(C(=O)O)cc3)ccc21 | CYP26A1 | enzyme activity, inhibitor |  | added: 9-cis-retinoic acid | 12 ± 3.98 µM |
| Cc1cc(O)c2c(c1)C(=O)c1cc(O)cc(O)c1C2=O | trypsin | enzyme activity, inhibitor |  | range of inhibitory concentrations | 50 to 100 µM |
| CC(C)[C@@H]1NC(=O)C(C)(C)NC(=O)c2csc(n2)CNC(=O)C[C@@H](/C=C/CCS)OC1=O | HDAC11 | enzyme activity, inhibitor, cell-free |  |  | 0.0023 µM |
| Cn1cc(-c2ccc3c(c2)ncn3-c2cc(NS(=O)(=O)C3CC3)cc(-c3ccc(F)cc3F)c2)cn1 | RET kinase | enzyme activity, inhibitor |  |  | < 0.1 µM |
| Cc1cc([C@H](C)Nc2ccccc2)c2oc(N3CCOCC3)cc(=O)c2c1 | PI4KIIα | enzyme activity, inhibitor |  | added: 10 µM ATP | > 100 µM |
